Published values from different studies.
Protocols differ between the studies behind these lines. ± gives the spread as reported.
Method: steady-state kinetics
B1: Rtr1 residues 1-178 (Saccharomyces cerevisiae, UniProt P40084); chain MATIEDIKETALIPFQKHRQLSMHEAEVITLEIIGLLCDSECKDEKTLKYLGRFLTPDMYQDLVDERNLNKRCGYPLCGKSPERIRDPFSMNDTTKKFLLENNPYAYLSHYCSKFHFRCSQFYQVQLSDEALFARTGVHLFEDPEQDKHDIDFKVTLFEELLREKASEEDIKSLISGL
B2: ltaE H83N (Escherichia coli, UniProt P75823); chain MIDLRSDTVTRPSRAMLEAMMAAPVGDDVYGDDPTVNALQDYAAELSGKEAAIFLPTGTQANLVALLSHCERGEEYIVGQAANNYLFEAGGAAVLGSIQPQPIDAAADGTLPLDKVAMKIKPDDIHFARTKLLSLENTHNGKVLPREYLKEAWEFTRERNLALHVDGARIFNAVVAYGCELKEITQYCDSFTICLSKGLGTPVGSLLVGNRDYIKRAIRWRKMTGGGMRQSGILAAAGIYALKNNVARLQEDHDNAAWMAEQLREAGADVMRQDTNMLFVRVGEENAAALGEYMKARNVLINASPIVRLVTHLDVSREQLAEVAAHWRAFLAR
B3: asnB E349D (Escherichia coli, UniProt P22106); chain CSIFGVFDIKTDAVELRKKALELSRLMRHRGPDWSGIYASDNAILAHERLSIVDVNAGAQPLYNQQKTHVLAVNGEIYNHQALRAEYGDRYQFQTGSDCEVILALYQEKGPEFLDDLQGMFAFALYDSEKDAYLIGRDHLGIIPLYMGYDEHGQLYVASEMKALVPVCRTIKEFPAGSYLWSQDGEIRSYYHRDWFDYDAVKDNVTDKNELRQALEDSVKSHLMSDVPYGVLLSGGLDSSIISAITKKYAARRVEDQERSEAWWPQLHSFAVGLPGSPDLKAAQEVANHLGTVHHEIHFTVQEGLDAIRDVIYHIETYDVTTIRASTPMYLMSRKIKAMGIKMVLSGDGSDEVFGGYLYFHKAPNAKELHEETVRKLLALHMYDCARANKAMSAWGVEARVPFLDKKFLDVAMRINPQDKMCGNGKMEKHILRECFEAYLPASVAWRQKEQFSDGVGYSWIDTLKEVAAQQVSDQQLETARFRFPYNTPTSKEAYLYREIFEELFPLPSAAECVPGGPSVACSSAKAIEWDEAFKKMDDPSGRAVGVHQSAYK
B4: msrA U16C (Clostridium oremlandii, UniProt A8MI53); chain MDTNQKLSIAVFALGCFWGPDAQFGSIKGVVSTRVGYAGGTTNNPSYYNLGDHSESIEIQYDANVITYGELLNIFWNLHNPVYETTNRQYMSRIFYLDDGQKSEALEMKRQIEAANGEKIYTEIVPLENFYLAEGYHQKYYLQNTTKLYQTLKAIYGGFGNLVRSTLAARMNGYIAGNLSIASLKEEMDLVELPEDQYEKVLSIVEEIK
B5: Nudt8 (Mus musculus, UniProt Q9CR24); chain MLPDGLSAEDEQRCRQLLARTTARLRSRPAAAAVLVPLCLVRGVPALLYTLRSSRLVGRHKGEVSFPGGKCDPDDQDVIHTALRETQEELGLEVPKEHVWGVLQPVYDREKATIVPVLANVGPLDLQSLRPNLEEVDEVFEMSLAHLLQTQNQGYTHFCQGGHFSYTLPVFLHGPHRVWGLTAVITELTLKLLAPGFYQPSLAVPELPRG
B6: FDC1 (Saccharomyces cerevisiae, UniProt Q03034); chain MRKLNPALEFRDFIQVLKDEDDLIEITEEIDPNLEVGAIMRKAYESHLPAPLFKNLKGASKDLFSILGCPAGLRSKEKGDHGRIAHHLGLDPKTTIKEIIDYLLECKEKEPLPPITVPVSSAPCKTHILSEEKIHLQSLPTPYLHVSDGGKYLQTYGMWILQTPDKKWTNWSIARGMVVDDKHITGLVIKPQHIRQIADSWAAIGKANEIPFALCFGVPPAAILVSSMPIPEGVSESDYVGAILGESVPVVKCETNDLMVPATSEMVFEGTLSLTDTHLEGPFGEMHGYVFKSQGHPCPLYTVKAMSYRDNAILPVSNPGLCTDETHTLIGSLVATEAKELAIESGLPILDAFMPYEAQALWLILKVDLKGLQALKTTPEEFCKKVGDIYFRTKVGFIVHEIILVADDIDIFNFKEVIWAYVTRHTPVADQMAFDDVTSFPLAPFVSQSSRSKTMKGGKCVTNCIFRQQYERSFDYITCNFEKGYPKGLVDKVNENWKRYGYK
B7: GTPBP3 A322P/E225K (Homo sapiens, UniProt Q969Y2); chain TRRSSGAPAPGSGATIFALSSGQGRCGIAVIRTSGPASGHALRILTAPRDLPLARHASLRLLSDPRSGEPLDRALVLWFPGPQSFTGEDCVEFHVHGGPAVVSGVLQALGSVPGLRPAEAGEFTRRAFANGKLNLTEVEGLADLIHAETEAQRRQALRQLDGELGHLCRGWAETLTKALAHVEAYIDFGEDDNLEEGVLEQADIKVRALQVALGAHLRDARRGQRLRSGVHVVVTGPPNAGKSSLVNLLSRKPVSIVSPEPGTTRDVLETPVDLAGFPVLLSDTAGLREGVGPVEQEGVRRPRERLEQADLILAMLDASDLASPSSCNFLATVVASVGAQSPSDSSQRLLLVLNKSDLLSPEGPGPGPDLPPHLLLSCLTGEGLDGLLEALRKELAAVCGDPSTDPPLLTRARHQHHLQGCLDALGHYKQSKDLALAAEALRVARGHLTRLTGGGGTEEILDIIFQDFCVGK
B8: acryloyl-CoA reductase (Metallosphaera sedula, UniProt A4YGN2); chain MKAVVVKGHKQGYEVREVQDPKPASGEVIIKVRRAALCYRDLLQLQGFYPRMKYPVVLGHEVVGEILEVGEGVTGFSPGDRVISLLYAPDGTCHYCRQGEEAYCHSRLGYSEELDGFFSEMAKVKVTSLVKVPTRASDEGAVMVPCVTGMVYRGLRRANLREGETVLVTGASGGVGIHALQVAKAMGARVVGVTTSEEKASIVGKYADRVIVGSKFSEEAKKEDINVVIDTVGTPTFDESLKSLWMGGRIVQIGNVDPTQSYQLRLGYTILKDIAIIGHASATRRDAEGALKLTAEGKIRPVVAGTVHLEEIDKGYEMLKDKHKVGKVLLTT
UniProt P07379, sequence (whole entry, looked up): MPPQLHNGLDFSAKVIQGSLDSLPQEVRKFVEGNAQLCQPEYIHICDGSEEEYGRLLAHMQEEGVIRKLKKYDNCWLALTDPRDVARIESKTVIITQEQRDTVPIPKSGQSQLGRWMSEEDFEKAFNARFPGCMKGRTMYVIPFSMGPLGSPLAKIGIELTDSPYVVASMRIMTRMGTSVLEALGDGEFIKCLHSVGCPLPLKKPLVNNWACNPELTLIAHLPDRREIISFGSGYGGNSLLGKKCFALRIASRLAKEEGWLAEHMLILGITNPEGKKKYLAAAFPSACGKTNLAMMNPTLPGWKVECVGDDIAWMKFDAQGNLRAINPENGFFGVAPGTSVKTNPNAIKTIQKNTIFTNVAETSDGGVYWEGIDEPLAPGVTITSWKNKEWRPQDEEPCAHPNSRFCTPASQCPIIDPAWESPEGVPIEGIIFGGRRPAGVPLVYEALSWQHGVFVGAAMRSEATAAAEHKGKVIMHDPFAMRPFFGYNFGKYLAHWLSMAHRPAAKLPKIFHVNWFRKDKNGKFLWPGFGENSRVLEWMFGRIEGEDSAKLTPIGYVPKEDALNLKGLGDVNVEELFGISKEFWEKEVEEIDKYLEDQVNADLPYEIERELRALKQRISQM

Molecule = B1 (Rtr1 residues 1-178); substrate = Cc1cc(=O)oc2c(F)c(OP(=O)(O)O)c(F)cc12; pH = pH 6; notes = NaCl 150 mM, no metal added; kcat/Km = 6.67e+06 M⁻¹ s⁻¹
Molecule = Pck1 (Rattus norvegicus, UniProt P07379); substrate = Nc1nc2c(ncn2[C@@H]2O[C@H](COP(=O)(O)OP(=O)(O)OP(=O)(O)O)[C@@H](O)[C@H]2O)c(=O)[nH]1; pH = pH 7.5; temperature = 25 °C; added = OAA, GTP; kcat/Km = 790000 M⁻¹ s⁻¹
Molecule = B2 (ltaE H83N); substrate = C[C@H](O)[C@H](N)C(=O)O; pH = pH 7; temperature = 30 °C; notes = potassium phosphate 20 mM, retro-aldol cleavage; added = PLP 500 µM; kcat/Km = 750 M⁻¹ s⁻¹
Molecule = B3 (asnB E349D); substrate = N[C@@H](CC(=O)O)C(=O)O; pH = pH 8; temperature = 37 °C; notes = apparent; added = L-glutamine 20 mM; kcat/Km = 3450 M⁻¹ s⁻¹
Molecule = B4 (msrA U16C); substrate = CN(C)c1ccc(N=Nc2ccc(S(=O)(=O)N[C@@H](CC[S@+](C)[O-])C(=O)O)cc2)cc1; pH = pH 7.5; temperature = 37 °C; notes = 50 mM NaCl, Km above tested range; added = 20 mM DTT reductant; kcat/Km = 950 M⁻¹ s⁻¹
Molecule = B5 (Nudt8); substrate = CCCCCC(=O)SCCNC(=O)CCNC(=O)[C@H](O)C(C)(C)COP(=O)(O)OP(=O)(O)OC[C@H]1O[C@@H](n2cnc3c(N)ncnc32)[C@H](O)[C@@H]1OP(=O)(O)O; pH = pH 8.5; added = 2 mM Mn2+; kcat/Km = 9830 M⁻¹ s⁻¹
Molecule = B6 (FDC1); substrate = COc1cc(/C=C/C(=O)O)ccc1O; pH = pH 7; temperature = 25 °C; notes = apparent kcat, incomplete cofactor occupancy, apparent; kcat/Km = 21000 ± 4500 M⁻¹ s⁻¹
Molecule = B7 (GTPBP3 A322P/E225K); substrate = Nc1nc2c(ncn2[C@@H]2O[C@H](COP(=O)(O)OP(=O)(O)OP(=O)(O)O)[C@@H](O)[C@H]2O)c(=O)[nH]1; pH = pH 8; temperature = 37 °C; notes = KCl 300 mM; kcat/Km = 350 M⁻¹ s⁻¹
Molecule = B8 (acryloyl-CoA reductase); substrate = C=CC(=O)SCCNC(=O)CCNC(=O)[C@H](O)C(C)(C)COP(=O)(O)OP(=O)(O)OC[C@H]1O[C@@H](n2cnc3c(N)ncnc32)[C@H](O)[C@@H]1OP(=O)(O)O; pH = pH 6.5; temperature = 65 °C; notes = substrate made in situ; added = ATP, CoA, NADPH; kcat/Km = 501000 M⁻¹ s⁻¹
